Measurements gathered from unrelated publications.
Several values in a cell are separate wells, animals, samples, runs or records. ± marks the error that the study gave. ≈ marks a conversion by molar mass, not a printed value.
Organism: Staphylococcus aureus

With CN[C@H](CC(C)C)C(=O)N[C@H]1C(=O)N[C@@H](CC(N)=O)C(=O)N[C@H]2C(=O)N[C@H]3C(=O)N[C@H](C(=O)N[C@H](C(=O)O)c4cc(O)cc(O)c4-c4cc3ccc4O)[C@H](O)c3ccc(c(Cl)c3)Oc3cc2cc(c3O[C@@H]2O[C@H](CO)[C@@H](O)[C@H](O)[C@H]2O[C@H]2C[C@](C)(N)[C@H](O)[C@H](C)O2)Oc2ccc(cc2Cl)[C@H]1O the bacterial load was 5.21 log CFU and 5.57 log CFU and 5.66 log CFU and 4.57 log CFU and 4.21 log CFU (USA300 LAC, female ICR mice, peritonitis, liver).
CC(=O)NC[C@H]1CN(c2ccc(N3CCOCC3)c(F)c2)C(=O)O1 gave an MIC50 of 0.5 µg/mL (≈ 1.48 µM) (MRSA; 10 isolates).
The MBC of COc1c(C)c(O)c(C)c(O)c1C(=O)/C=C/c1ccccc1 is reported as 5000 µg/mL (broth microdilution; ATCC 25923).
O=C(O)/C=C/c1ccc(O)c(O)c1 gave an IC50 of > 100 µM (bacterial growth; ATCC 29213; 24 h).
CN[C@H](CC(C)C)C(=O)N[C@H]1C(=O)N[C@@H](CC(N)=O)C(=O)N[C@H]2C(=O)N[C@H]3C(=O)N[C@H](C(=O)N[C@H](C(=O)O)c4cc(O)cc(O)c4-c4cc3ccc4O)[C@H](O)c3ccc(c(Cl)c3)Oc3cc2cc(c3O[C@@H]2O[C@H](CO)[C@@H](O)[C@H](O)[C@H]2O[C@H]2C[C@](C)(N)[C@H](O)[C@H](C)O2)Oc2ccc(cc2Cl)[C@H]1O gave an MIC range of 1 µg/mL (≈ 0.69 µM) (ATCC 29213).
The IC50 of OC[C@H]1O[C@@H](Oc2cc3c(O[C@@H]4O[C@H](CO)[C@@H](O)[C@H](O)[C@H]4O)cc(O)cc3[o+]c2-c2ccc(O)c(O)c2)[C@H](O)[C@@H](O)[C@@H]1O is reported as > 100 µM (bacterial growth; ATCC 29213; 24 h).
The MBC of [Cl][Fe]([Cl])[Cl] is reported as > 1600 µM (24 h, 37 °C).
Under “time to kill below detection”, O=C(O)c1ccc(-n2cc(CNc3cc(Br)cc(C(F)(F)F)c3)c(-c3cccc(F)c3)n2)cc1 is recorded as ≤ 10 h (ATCC 700699, MRSA; 4 × MIC).
For Cc1onc(-c2ccccc2)c1C(=O)N[C@@H]1C(=O)N2[C@@H]1SC(C)(C)[C@@H]2C(=O)O, “inhibition zone diameter” read 12 mm (CGMCC 1.9; concentration not given, 18 h, 37 °C).
With O=C(NCc1ccccc1)C1COC2(CCCCC2)OC1 the residual biofilm was 45 ± 12% (crystal violet staining; 500 µg/mL, 24 h; baseline: untreated).
NC[C@H]1O[C@H](O[C@H]2[C@H](O)[C@@H](O[C@H]3O[C@H](CO)[C@@H](O)[C@H](N)[C@H]3O)[C@H](N)C[C@@H]2N)[C@H](O)[C@@H](O)[C@@H]1O has a growth inhibition of 82% (concentration not given, 0.2 mg/mL).
With C[C@@H]1O[C@@H](OC[C@H]2O[C@@H](Oc3c(-c4ccc(O)c(O)c4)oc4cc(O)cc(O)c4c3=O)[C@H](O)[C@@H](O)[C@@H]2O)[C@H](O)[C@H](O)[C@H]1O the IC50 was > 100 µM (bacterial growth; ATCC 29213; 24 h).
For Cc1ccc(C[C@H](NC(=O)[C@@H](Cc2ccccc2)NC(=O)[C@@H](Cc2c[nH]c3ccccc23)NC(=O)[C@@H](N)CCCN)C(=O)N[C@H](Cc2ccccc2)C(=O)N[C@H](CCCCN)C(N)=O)cc1, the IC50 was > 20 µg/mL (bacterial growth; ATCC 29213).
For O=C(O)c1ccc(-n2cc(CNc3cc(Br)cc(C(F)(F)F)c3)c(-c3ccc(F)c(F)c3)n2)cc1, the PI-stained cells was 18% (membrane permeabilisation, flow cytometry; ATCC 700699; 1 x MIC, 30 min).
Under “inhibition zone diameter”, CCN1CCN(c2cc3c(cc2F)c(=O)c(C(=O)O)cn3C2CC2)CC1 is recorded as 18 mm (CGMCC 1.9; concentration not given, 18 h, 37 °C).
c1ccc(CN(CCN(Cc2ccccn2)Cc2ccccn2)Cc2ccccn2)nc1 gave an MBC of 375 µM (Calgary Biofilm Device; MRSA 1707; 24 h).
The MIC of CN[C@H](CC(C)C)C(=O)N[C@H]1C(=O)N[C@@H](CC(N)=O)C(=O)N[C@H]2C(=O)N[C@H]3C(=O)N[C@H](C(=O)N[C@H](C(=O)O)c4cc(O)cc(O)c4-c4cc3ccc4O)[C@H](O)c3ccc(c(Cl)c3)Oc3cc2cc(c3O[C@@H]2O[C@H](CO)[C@@H](O)[C@H](O)[C@H]2O[C@H]2C[C@](C)(N)[C@H](O)[C@H](C)O2)Oc2ccc(cc2Cl)[C@H]1O is reported as 1 µg/mL (≈ 0.69 µM) (ATCC 29213 MSSA; LB without zinc).
COc1cc(/C=C/C(=O)O)ccc1O gave an IC50 of > 100 µM (bacterial growth; ATCC 29213; 24 h).
COC(=O)[C@H](Cc1ccccc1)NC(=O)C1COC2(CCCCC2)OC1 gave a residual biofilm of 22 ± 3% (crystal violet staining; 500 µg/mL, 24 h; baseline: untreated).
CN[C@H](CC(C)C)C(=O)N[C@H]1C(=O)N[C@@H](CC(N)=O)C(=O)N[C@H]2C(=O)N[C@H]3C(=O)N[C@H](C(=O)N[C@H](C(=O)O)c4cc(O)cc(O)c4-c4cc3ccc4O)[C@H](O)c3ccc(c(Cl)c3)Oc3cc2cc(c3O[C@@H]2O[C@H](CO)[C@@H](O)[C@H](O)[C@H]2O[C@H]2C[C@](C)(N)[C@H](O)[C@H](C)O2)Oc2ccc(cc2Cl)[C@H]1O — result for “bacterial load in lung”: 6.92 log CFU and 7.38 log CFU and 7.68 log CFU and 7.2 log CFU and 8.51 log CFU (USA300 LAC MRSA, mouse lung infection; dose not given).
With CC[C@@H](C)[C@H]1O[C@@H](c2c(O)c(-c3ccccc3)cn(O)c2=O)[C@H](C)C[C@@H]1C the IC50 was > 20 µg/mL (bacterial growth; ATCC 33591, MRSA).
CCCCCCCCCC(=O)N[C@@H](Cc1c[nH]c2ccccc12)C(=O)N[C@H](CC(N)=O)C(=O)N[C@@H](CC(=O)O)C(=O)N[C@@H]1C(=O)NCC(=O)N[C@@H](CCCN)C(=O)N[C@@H](CC(=O)O)C(=O)N[C@H](C)C(=O)N[C@@H](CC(=O)O)C(=O)NCC(=O)N[C@H](CO)C(=O)N[C@@H]([C@H](C)CC(=O)O)C(=O)N[C@@H](CC(=O)c2ccccc2N)C(=O)O[C@@H]1C: “time to complete killing” 4 to 5 h (MRSA ATCC BAA-1556; MIC).
CCCCCCCCCC(=O)N[C@@H](Cc1c[nH]c2ccccc12)C(=O)N[C@H](CC(N)=O)C(=O)N[C@@H](CC(=O)O)C(=O)N[C@@H]1C(=O)NCC(=O)N[C@@H](CCCN)C(=O)N[C@@H](CC(=O)O)C(=O)N[C@H](C)C(=O)N[C@@H](CC(=O)O)C(=O)NCC(=O)N[C@H](CO)C(=O)N[C@@H]([C@H](C)CC(=O)O)C(=O)N[C@@H](CC(=O)c2ccccc2N)C(=O)O[C@@H]1C gave an MBC of 125 µM (Calgary biofilm device; MRSA BAA-1707).
For O=C(O)c1ccc(-n2cc(CNc3ccc(Br)c(C(F)(F)F)c3)c(-c3cccc(F)c3)n2)cc1, the biofilm MIC was 2 × planktonic MIC (ATCC 25923; 24 h, preformed biofilm).
For CN(C)[C@@H]1C(O)=C(C(N)=O)C(=O)[C@@]2(O)C(O)=C3C(=O)c4c(O)cccc4[C@@](C)(O)[C@H]3C[C@@H]12, “inhibition zone diameter” read 17.5 mm (CGMCC 1.9; concentration not given, 18 h, 37 °C).
For O=C(NCCc1ccccc1)C1COC2(CCCCC2)O1 (stereo not drawn), the residual biofilm was 11 ± 1% (crystal violet staining; 500 µg/mL, 24 h; baseline: untreated).
For CC(C)c1ccc(/C=C2\N=C(SCc3ccccc3)N(c3ccccc3)C2=O)cc1, “inhibition zone diameter” read 12 ± 0.1 mm (ATCC 6538; concentration not given).
CN[C@H](CC(C)C)C(=O)N[C@H]1C(=O)N[C@@H](CC(N)=O)C(=O)N[C@H]2C(=O)N[C@H]3C(=O)N[C@H](C(=O)N[C@H](C(=O)O)c4cc(O)cc(O)c4-c4cc3ccc4O)[C@H](O)c3ccc(c(Cl)c3)Oc3cc2cc(c3O[C@@H]2O[C@H](CO)[C@@H](O)[C@H](O)[C@H]2O[C@H]2C[C@](C)(N)[C@H](O)[C@H](C)O2)Oc2ccc(cc2Cl)[C@H]1O — result for “time to complete killing”: 8 h (time-kill; ATCC 25923; 1 µg/mL).
C=C[C@]1(C)C[C@@H](OC(=O)CS[C@@H]2C[C@H]3CC[C@@H](C2)N3C)[C@]2(C)[C@H](C)CC[C@]3(CCC(=O)[C@H]32)[C@@H](C)[C@@H]1O gave an MIC50 of 0.0625 µg/mL (≈ 0.121 µM).
For COc1cc(-c2oc3cc(O)cc(O)c3c(=O)c2O[C@@H]2O[C@H](CO)[C@@H](O)[C@H](O)[C@H]2O)ccc1O, the IC50 was > 100 µM (bacterial growth; ATCC 29213; 24 h).
Cc1ccc(C[C@H](NC(=O)[C@@H](Cc2ccccc2)NC(=O)[C@@H](Cc2c[nH]c3ccccc23)NC(=O)[C@@H](N)CCCN)C(=O)N[C@H](Cc2ccccc2)C(=O)N[C@H](CCCN)C(N)=O)cc1 gave an IC50 of > 20 µg/mL (ATCC 33591, methicillin-resistant).
CN[C@H](CC(C)C)C(=O)N[C@H]1C(=O)N[C@@H](CC(N)=O)C(=O)N[C@H]2C(=O)N[C@H]3C(=O)N[C@H](C(=O)N[C@H](C(=O)O)c4cc(O)cc(O)c4-c4cc3ccc4O)[C@H](O)c3ccc(c(Cl)c3)Oc3cc2cc(c3O[C@@H]2O[C@H](CO)[C@@H](O)[C@H](O)[C@H]2O[C@H]2C[C@](C)(N)[C@H](O)[C@H](C)O2)Oc2ccc(cc2Cl)[C@H]1O has an isolates inhibited of 13.6% (clinical isolates; ≤1 µg/mL, MIC breakpoint).
NC[C@H]1O[C@H](O[C@H]2[C@H](O)[C@@H](O[C@H]3O[C@H](CO)[C@@H](O)[C@H](N)[C@H]3O)[C@H](N)C[C@@H]2N)[C@H](O)[C@@H](O)[C@@H]1O: “inhibition zone diameter” 14.2 mm (ATCC 25923; 8 µg per disc, 24 h, 37 °C).
